Experimental data pooled from the literature.
Numbers after ± are the reported error.

Molecule | tested on | assay | system | setting | how to read | endpoint | value
CC(C)(NC(=O)O[C@@H]1CN2CCC1CC2)c1csc(-c2ccc(F)cc2)n1 | – | – | sample A patients, plasma | oral, 15 mg once daily, week 52, together with: imiglucerase | – | glucosylsphingosine median | 14.8 ng/mL
CN[C@@](C)(C[18F])C(=O)O | DU-145 tumour model | – | host not given, blood | 2 h, tumour-bearing | – | tracer uptake | 0.6 %ID/g
COc1cccc(O)c1-c1cc(=O)c2c(O)c(OC)c(OC)c(OC)c2o1 | – | – | C57BL/6 mouse, aristolochic acid I renal fibrosis | oral gavage, 30 or 60 mg/kg, day 14, together with: aristolochic acid I 10 mg/kg i.p. single | baseline: aristolochic acid I group | blood urea | decreased
N=C(N)NC(=O)c1nc(-c2cc3ccccc3o2)c(N2CCCCCC2)nc1N | – | – | Sprague-Dawley rat | iv, 1.5 mg/kg, 6 h, together with: acetazolamide 25 mg/kg | baseline: acetazolamide alone | urine volume | no effect
polymyxin B | – | immunohistochemistry | Kunming mice, LPS-induced testicular inflammation, testis | oral, dose not given, 20 and 40 days, together with: LPS | baseline: LPS alone | Nrf2-positive area | increased
CCCCCCCCCCCCCCCC(=O)OCC(O)CO (stereo not shown) | – | ABTS scavenging, absorbance | – | 15 min | – | IC50 | 132 µM
COc1cc2c(cc1O)[C@@H]1Cc3ccc(OC)c(OC)c3CN1CC2 | – | – | CD-1 mice | ip, 10 mg/kg, 10 min before cocaine, 6 days, together with: cocaine 20 mg/kg | direction not given | CPP score | 65 ± 81 s
CC(=O)N1CC[C@@H](NC(=O)[C@@H](N)Cc2c(C)cc(O)cc2C)c2cc(CC3CCCCC3)ccc21 | – | warm water tail withdrawal | C57BL/6 mice | intraperitoneal, up to 10 mg/kg cumulative | – | antinociception | inactive
CCCN1CCC[C@@H]2Cc3n[nH]cc3C[C@H]21 | – | cocaine-appropriate responding, drug discrimination | male rats trained on cocaine | intraperitoneal, LMS, together with: cocaine 10 mg/kg training dose | – | dose for full substitution | 0.125 mg/kg
CC[C@H](CC[C@@H](C)[C@H]1CC[C@H]2[C@@H]3CC=C4C[C@@H](O)CC[C@]4(C)[C@H]3CC[C@]12C)C(C)C | – | ABTS scavenging, absorbance | – | 15 min | – | IC50 | 110 µM
CCC1CC(N2CCCCC2)CC(CC)N1C(=O)Oc1c(OC)cc(-c2nc(-c3ccccc3)c(-c3cccs3)[nH]2)cc1OC (stereo not shown) | – | – | GFAP-EGFP mice, intrastriatal IL-1β | oral, 3 mg/kg DPTIP equivalent, 30 min before IL-1β, read 4 h after, together with: IL-1β | – | GFP+ EV release into blood | inhibited
Cn1cc(C2=C(c3coc4ccc(F)cc34)C(=O)NC2=O)c2cc3c(cc21)OCO3 | – | – | male nude mice 786-O xenograft | intraperitoneal, 20 mg/kg thrice weekly, 4 weeks | – | tumour weight | 279 ± 91.3 mg
neuropeptide Y | – | – | rat, plasma | intratesticular, 5 µg/kg, together with: hCG | – | cumulative testosterone release | 8.8 ± 1.8 ng/mL
C[C@@H]1NC(C)(C)CO[C@@]1(O)c1cccc(Cl)c1 | – | nicotine antinociception blockade, antagonist, tail-flick test | mouse | 15 min pretreatment, together with: nicotine 2.5 mg/kg subcutaneous | – | AD50 | 0.2 mg/kg
C=C(C)[C@H]1Cc2c(ccc3c2O[C@@H]2COc4cc(OC)c(OC)cc4[C@@H]2C3=O)O1 | – | complex I-driven respiration | cortical mitochondria, Fischer 344 rat | 10 pM | – | onset of reduced oxygen consumption | 12 min
CC(=O)O[C@H]1C(=O)[C@@]2(C)[C@H]([C@H](OC(=O)c3ccccc3)[C@]3(O)C[C@H](OC(=O)[C@H](O)[C@@H](NC(=O)c4ccccc4)c4ccccc4)C(C)=C1C3(C)C)[C@]1(OC(C)=O)CO[C@@H]1C[C@@H]2O | – | – | mice intracranial C6 glioma | iv, 3 mg/kg, paclitaxel formulation | – | median survival time | 29 days

For quick reference, copied from above:
Molecule | tested on | assay | system | setting | how to read | endpoint | value
CN[C@@](C)(C[18F])C(=O)O | DU-145 tumour model | – | host not given, blood | 2 h, tumour-bearing | – | tracer uptake | 0.6 %ID/g
